# Results from different studies.
# Compare with care: the assays were run in different laboratories. ± gives the spread as reported.
SMILES,cell line,test,conditions,scale,quantity,result
C=CC(=O)N1CCCC(n2c(=O)c3ncccc3n(Cc3ccc(Oc4ccccc4)cc3)c2=O)C1 (centres unmarked),acute leukemia cell lines,cell proliferation,"concentration not given, 72 h",,antiproliferative activity,inactive
COc1cc(CNC(=O)C[C@H](C)CCC=C(C)C)ccc1OCc1cn(-c2ccccc2F)nn1,Hs-578T breast cancer cells,SRB,"10 µM, 48 h",,growth percent,39.5%
Cc1nc(C)c(C=[N+]([O-])C(C)(C)C)nc1C,rat primary cerebellar granule neurons,,"100 µM, added: MPP+",,ATP content increase,36.8%
COc1cc(CNC(=O)C[C@H](C)CCC=C(C)C)ccc1OCc1cn(-c2ccc(Cl)cc2Cl)nn1,DU-145,SRB,"10 µM, 48 h",,growth percent,90.5%
CC[C@H](C(=O)N1CCCC[C@H]1C(=O)O[C@H](CCc1ccc(OC)c(OC)c1)c1cccc(OCC(=O)NCCOCCOCCN(C)C/C=C/C(=O)Nc2cc3c(Nc4ccc(F)c(Cl)c4)ncnc3cc2OC)c1)c1cc(OC)c(OC)c(OC)c1,NCI-H1975 expressing FKBP12F36V-PTPN2,CellTiter-Glo,"concentration not given, 6 days",,decrease in viability,99.6%
CC1(C)OC(=O)C[C@H](O)[C@]2(C)[C@H]3CC[C@@]4(C)[C@H](c5ccoc5)OC(=O)[C@H]5O[C@]54[C@]3(C)C(=O)C[C@@H]12,"COLO 320 (ABCB1-overexpressing, multidrug-resistant)",cell growth,"200 µM starting, CI at ED50, added: doxorubicin, ratio 185.6:1",,combination index,0.66
CC(=O)c1c(C)c2cnc(Nc3ccc(N4CCNCC4)cn3)nc2n(C2CCCC2)c1=O,mAb-expressing recombinant CHO,growth arrest,"24 h, added at day 0",,concentration at maximal effect,5 to 10 µM
COc1cc(CNC(=O)C[C@H](C)CCC=C(C)C)ccc1O,EKVX,SRB,"10 µM, 48 h",,growth percent,86.3%
O=Cc1c(O)ccc2ccccc12,HUVEC,"RNA sequencing, item: CCL2","75 µM, 24 h",relative to: DMSO,log2 fold change,-2.99
COc1cc(CNC(=O)C[C@H](C)CCC=C(C)C)ccc1OCc1cn(-c2ccc(F)cc2)nn1,Hs-578T breast cancer cells,SRB,"10 µM, 48 h",,growth percent,33.7%
COc1cc2c(C=C3C(=O)Nc4ccccc43)c[nH]c2cc1C,colon cancer subpanel of NCI-60,,48 h,,TGI,3.98 µM
O=C(/C=C(O)/C=C/c1cccs1)/C=C/c1cccs1,Caco-2,"DCFH-DA, SRB-normalized",1 µM,relative to: untreated cells,intracellular ROS,134 ± 12.4%
N[C@@H](CCC(=O)N[C@@H](CS[Se]Cc1ccc(-c2cc(C(F)(F)F)nn2-c2ccc(S(N)(=O)=O)cc2)cc1)C(=O)NCC(=O)O)C(=O)O,1205 Lu melanoma,propidium iodide flow cytometry,"25 µM, 72 h",relative to: untreated,sub-G0/G1 cells,6.2 fold
COc1cc(CNC(=O)C[C@H](C)CCC=C(C)C)ccc1OCc1cn(-c2cccc(C(F)(F)F)c2)nn1,ACHN,SRB,"10 µM, 48 h",,growth percent,77.6%
CO[C@H]1N(OC)c2ccccc2[C@@]12CN=C(Nc1cc(C(F)(F)F)cc(C(F)(F)F)c1)S2 (relative stereo),HCT-116,annexin V/PI flow cytometry,"40 µM, 48 h",,early apoptotic cells,34.8 ± 4.88%
CC(C)Cc1ccc(C(C)C(=O)N/N=C/c2ccc(OCC(=O)N/N=C/c3cccc(O)c3)cc2)cc1 (centres unmarked),U87 MG,MTT,"80 µM, 48 h",,viability,107%
CCN(CC)CC(=O)Nc1cccc(-n2cc(-c3ccc4ccc(-c5cn(-c6cccc(NC(=O)CN(CC)CC)c6)nn5)cc4c3)nn2)c1,RCC4 and 786-0,Western blot,concentration not given,,HIF-1β protein level,no effect
Nc1nc2cc(CC[C@H]3C[C@@H](n4ccc5c(N)ncnc54)[C@H](O)[C@@H]3O)ccc2cc1Br,NCI-H1048,"SmD1/3 dimethylation, item: SmD1/3-Me2","1 nM, 48 h",,inhibition,> 50%
COc1cc(CNC(=O)C[C@H](C)CCC=C(C)C)ccc1OCc1cn(-c2ccc(Br)cc2)nn1,Hs-578T breast cancer cells,SRB,"10 µM, 48 h",,growth percent,73.8%
CC(=O)OC[C@H]1O[C@@H](Sc2sc(C(=O)c3ccc(C)cc3)c(N)c2-c2nc3ccccc3s2)[C@H](OC(C)=O)[C@@H](OC(C)=O)[C@@H]1OC(C)=O,RXF 393,SRB,"10 µM, 48 h",relative to: untreated,growth,53.5%
C/C=C(/NC(=O)CCCCCCC)C(=O)N/C(=C/C)C(=O)N[C@H](CC(C)C)C(=O)N[C@@H](CC(C)C)C(=O)Nc1ccc(C(=O)N[C@H](C(=O)O)[C@@H](C)O)cc1,RAW264.7,"NO production, Griess","concentration not given, added: LPS",,inhibition,inhibited
COc1cc(CN2CCN(c3ccc(Cl)cc3)CC2)c2cc3[n+](cc2c1O)CCc1cc2c(cc1-3)OCO2,HeLa and MDCK,SRB,48 h,relative to: CC50 MDCK over IC50 HeLa,therapeutic index,45.8
Cc1cc(Nc2ccc(NC(=O)c3ccc(NC(=O)c4ccncc4)cc3)cc2)nc(N)n1,KG-1 with methylated CMV-luciferase,luciferase reporter gene,"1 µM, 24 h",relative to: untreated,reporter reactivation,1 ± 0.1 fold
N[C@H](CSC(F)(F)[18F])C(=O)O,C6,,"concentration not given, 120 min",,protein incorporation,~13%
COc1cc(CNC(=O)C[C@H](C)CCC=C(C)C)ccc1OCc1cn(-c2ccccc2)nn1,T47D breast cancer cells,SRB,"10 µM, 48 h",,growth percent,66%
CC(C)(C)C(=O)Nc1ccc2[nH]c(CN3CCC(N(CCCN4CCOCC4)CC4OC(n5cnc6c(N)ncnc65)C(O)C4O)CC3)nc2c1 (centres unmarked),H460 R231Q cells,tumorsphere formation,"5 µM, 7 to 14 days",,inhibition,92.1%
COc1ccc(C2=Nn3c(NN=C4C(=O)N(Cc5ccccc5)c5ccc(Cl)cc54)nnc3SC2)cc1,EKVX,"cell growth or viability, SRB",10 µM,,inhibition,12%
COc1cc(CNC(=O)C[C@H](C)CCC=C(C)C)ccc1OCc1cn(-c2ccccc2Cl)nn1,EKVX,SRB,"10 µM, 48 h",,growth percent,54%
O=C(N1CCCC1)n1cc(-c2ccc(-c3ccccc3)cc2)nn1,mouse T-cells,"N-terminal labeled proteins, N-terminal enrichment proteomics, item: LARP1","1 nM, 6 h",relative to: DMSO,SILAC ratio,1.21 ± 0.26
CC(=O)OC[C@H]1O[C@@H](Sc2sc(C(=O)c3ccc(Br)cc3)c(N)c2-c2nc3ccccc3s2)[C@H](OC(C)=O)[C@@H](OC(C)=O)[C@H]1OC(C)=O,LOX IMVI,SRB,"10 µM, 48 h",,growth,96.8%
Cc1cc(C)nc(NC(=S)N2CCN(Cc3ccc(C(F)(F)F)cc3)CC2)c1,HCC70,"cell viability, CellTiter-Glo",4 days,,EC50,16 µM
COc1ccc(NC(=O)COc2ccc(/C=C/C(C)=N/O)cc2OC)cc1,SH-SY5Y,flow cytometry,"40 µM, added: amyloid beta 10 µM",,IL-1β expressing cells,4.88%
CCCCCCCCCCCCCCCC(=O)OCC(CSC[C@H](N)C(=O)N[C@@H](CO)C(=O)N[C@@H](CCCCN)C(=O)N[C@@H](CCCCN)C(=O)N[C@@H](CCCCN)C(=O)N[C@@H](CCCCN)C(=O)NCCCCCC(=O)N[C@@H](CCCCN)C(=O)N[C@@H](CC(C)C)C(=O)N[C@H](C(=O)N[C@@H](Cc1ccccc1)C(=O)N[C@@H](Cc1ccccc1)C(=O)N[C@@H](Cc1ccc2ccccc2c1)C(=O)O)C(C)C)OC(=O)CCCCCCCCCCCCCCC (some centres unmarked),BV-2,"western blot, item: MSR1","1.0 µM, 12 h",,protein level,increased
CC(C)Cc1ccc(C(C)C(=O)N/N=C/c2ccc(OCC(=O)N/N=C/c3ccc([N+](=O)[O-])cc3)cc2)cc1 (centres unmarked),U87 MG,MTT,"40 µM, 48 h",,viability,88%
C=C(C)[C@@H]1CC[C@]2(C(=O)OCO/N=[N+](\[O-])N3CCCC3)CC[C@]3(C)[C@H](CC[C@@H]4[C@@]5(C)CC[C@H](OC(C)=O)C(C)(C)[C@@H]5CC[C@]43C)[C@@H]12,B16-F10,Annexin V/PI flow cytometry,"0.25 µM, 36 h",,late apoptotic cells,5.1%
COc1cccc(/C=N/NC(=O)COc2ccc(/C=N/NC(=O)C(C)c3ccc(CC(C)C)cc3)cc2)c1O (centres unmarked),U87 MG,MTT,"10 µM, 48 h",,viability,56%
O=C1NC(=O)C(=Cc2ccc(-c3cccc(C(F)(F)F)c3)o2)S1,PBMC,ELISA,"10 µM, 288 h",,IFN-γ level,146%
COc1cc2c(OC3OCC(OC)C(OC)C3OC(=O)c3ccc(Br)cc3)c3c(c(-c4ccc5c(c4)OCO5)c2cc1OC)C(=O)OC3 (centres unmarked),CAL-27,"western blot, item: pro- and mature cathepsin D","concentration not given, 72 h",,protein level,decreased
